Measured values pooled from the literature.
Every numbered part comes from another study and shows a few of its results, in no order. Positions count from the first letter of the parent shown.

Study 1 — method: competition protein-binding microarray; form: double-stranded DNA, one strand shown; medium: in vitro; tested at: 2 µM; with: Cbf1 competitor, 0.05 µM; direction: higher = stronger binding; measurement: fluorescence intensity; shared flanks, not repeated: … GTCTTGATTCGCTTGACGCTGCTG
Target: Phosphate system positive regulatory protein PHO4, full length, GST-tagged (PHO4, Saccharomyces cerevisiae, UniProt P07270, residues 1-312)
Notes: whole 60-bp probe, lowest competitor level
Construct (chain): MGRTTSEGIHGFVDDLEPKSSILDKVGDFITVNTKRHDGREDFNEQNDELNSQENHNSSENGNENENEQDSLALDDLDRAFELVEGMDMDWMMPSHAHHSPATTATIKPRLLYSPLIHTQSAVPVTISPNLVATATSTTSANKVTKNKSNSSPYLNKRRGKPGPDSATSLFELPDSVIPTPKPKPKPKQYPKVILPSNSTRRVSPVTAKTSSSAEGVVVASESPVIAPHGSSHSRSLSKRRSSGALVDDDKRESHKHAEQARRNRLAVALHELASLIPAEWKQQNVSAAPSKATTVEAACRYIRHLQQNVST
AAGATGGCAGACGACCACGTGTAGGATCCCTAGTTC: 17200 a.u.
CTGCCAGTAAAGCAGAATGTGCGGGTCTTGTATCCA: 5790 a.u.
AACTATGAGTACAGGCATGTGATGTTACCTAAGGCC: 7550 a.u.
AATTGAAACCTCCGTCACGTTTTCTGATAATGTTGC: 12800 a.u.
CTAACGAAGGTTTGCGACGTGGGTGACAAGCCAAGT: 6720 a.u.
CGTCCTAGTGATTGCACCGTGGGTGCCATGAGGAAG: 10800 a.u.
TGCGCAACAACTTGTAATGTGGGTGTATGTCTAGAA: 5300 a.u.
TTCGCCGATTCTAATCATGTGACGCCTTTTCCCCAG: 6550 a.u.
CGTCCTAGTGATTGGCTCGTGGGTGCCATGAGGAAG: 10300 a.u.
TGCGCAACAACTTGGGCGGTGGGTGTATGTCTAGAA: 4220 a.u.

Study 2 — method: RNA Bind-n-Seq; form: RNA; medium: in vitro; tested at: 365 nM; reference: no-protein control; direction: higher = stronger binding; measurement: RBNS enrichment (R)
Target: RNA binding protein fox-1 homolog 2, RRM domain, GST-SBP tag (RBFOX2, Homo sapiens, UniProt O43251-10, residues 100-194)
Notes: natural RNA segment, single round, ends assumed
Shared flanks, not repeated: GGGAGUUCUACAGUCCGACGAUC … UGGAAUUCUCGGGUGCCAA
Target sequence (chain): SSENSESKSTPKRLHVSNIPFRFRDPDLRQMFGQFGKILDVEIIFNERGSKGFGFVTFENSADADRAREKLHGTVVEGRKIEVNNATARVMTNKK
GGACGAGGUCAAGGAGAUAUGAUAGGCCCGGAAGUUGCUGUGCCCCAUCAGCAGCUUGACGCGUGGUCACAGGACGAUUUCACUGACACUGCGAACUCUCAGGACUACCG: 0.406
GCCCUGAAGUGGGGGUGCGGGAAUGGGGAGGCUUCCCCUUUAGUGACUCAUGUCCCAGGUCUAAGAAAUCUAAAGUGGACUGAGGCAGGCUCCCUUGUGUGUCCCUAUAC: 0.407
AAGAAGAGACGAUGCCUGGACAAUGUCUUAUACAUAGGGAACAGAGAGGGAAUCAGAGGUGGCUUAGUUCCCUGAAGACAGCCUUAUGCGCUUAAUCCCUGCCUUUGAAA: 0.647
CAGGUUCCACGCCAUCUGCAUGGCCUGCAGGAGCUUCUGCUGCUGACCCCAUGCUGAGUGGCCAGUGGGGAGCGGCGCCCGGCAGGCUCUUCUGGGGUCGUCUGUCCUAU: 0.409
AAGGGACCCCCUCCCUGCUCCUGGGUCCCUGCGUGUGUGGGUGUGUGUCCGUGUGCAUGGCCUGUUUGUGUGCAAGGGCCCAGGACAGAAGUAUGUGUGCGUGUGUGUGU: 10.5
AGGUUGGGAAGUGACCACUUGGAUGUCUGGGCCCUGCCAAGGGGACAGGGGGGGUCAGCAGGAGGCUGGCUGCUUCCUGCCCUCCCCCCUCUCCCUGGGCCUACCAUGCU: 0.189
UUUCUUUAGCUGCUGUGUUUAUUCUCAUUCCUCACACAUGCCUUUAAGUGCAUUGGACUCCAGGAGAGCCAUUUGGGGUUUCUCUAGCUAAACAAUAAAUGUACCUGUCU: 0.486
CCAACCAUAAAAUUAUCUUAUUGCUACUUCAUAACUGUAAUUUUGCUACUGUUAUAAAUCAUAAUGUAAAUCUCUGUGUUUUCUGGUAGUUUUAGGUAACCCCUGUGAGA: 0.468
UCAGCUGCUGCUUCUGGGCCACAGGGGGGGCCCCCAGGACCUUGCACUUUAUUCCUGCCCACGUGGCUUUUGGCUGAGACCUGUGUAACCUGCUGUCCCUCACUCACCUG: 2.04

Study 3 — target: CCNA1, cyclin fold, Cln2 fusion (human); method: yeast growth competition, sequencing; medium: yeast; notes: weak parent motif; reference: not given; direction: higher = stronger binding; measurement: normalised enrichment score
Starting sequence: SAMHD1 docking peptide (human); ASKSRVQLFKDDP
ASKSRVRLFKDDP [Q7R]: 0.834
ASKSRKQLFKDDP [V6K]: 0.549
ASKDRVQLFKDDP [S4D]: 0.207
ASKIRVQLFKDDP [S4I]: 0.624
ASSSRVQLFKDDP [K3S]: 0.0637
ASKSRQQLFKDDP [V6Q]: -0.194
ASKSRVQLFKDPP [D12P]: 0.353
ASFSRVQLFKDDP [K3F]: 0.0176

Other studies, line by line
PhoQ, residues 284 288 289 292 302 303 SLANKL
fold induction (PhoP, residues 12 14 15 18 19 HHYTI (Escherichia coli, UniProt P23836); Sort-seq, measured: YFP reporter; E. coli; PhoQ-PhoP variant library, with: 10 µM Mg2+; reference: high Mg2+ state, higher = stronger signaling): 13.5

Excerpt of the above (other studies, line by line):
PhoQ, residues 284 288 289 292 302 303 SLANKL
fold induction (PhoP, residues 12 14 15 18 19 HHYTI (Escherichia coli, UniProt P23836); Sort-seq, measured: YFP reporter; E. coli; PhoQ-PhoP variant library, with: 10 µM Mg2+; reference: high Mg2+ state, higher = stronger signaling): 13.5
